Assay results of several laboratories.
Parts stem from different laboratories: compare values within a part only. Values joined by “and” are separate records of one study, mostly repeats; a detail may differ.
Chain of UniProt P10721 (whole entry, unmodified, looked up): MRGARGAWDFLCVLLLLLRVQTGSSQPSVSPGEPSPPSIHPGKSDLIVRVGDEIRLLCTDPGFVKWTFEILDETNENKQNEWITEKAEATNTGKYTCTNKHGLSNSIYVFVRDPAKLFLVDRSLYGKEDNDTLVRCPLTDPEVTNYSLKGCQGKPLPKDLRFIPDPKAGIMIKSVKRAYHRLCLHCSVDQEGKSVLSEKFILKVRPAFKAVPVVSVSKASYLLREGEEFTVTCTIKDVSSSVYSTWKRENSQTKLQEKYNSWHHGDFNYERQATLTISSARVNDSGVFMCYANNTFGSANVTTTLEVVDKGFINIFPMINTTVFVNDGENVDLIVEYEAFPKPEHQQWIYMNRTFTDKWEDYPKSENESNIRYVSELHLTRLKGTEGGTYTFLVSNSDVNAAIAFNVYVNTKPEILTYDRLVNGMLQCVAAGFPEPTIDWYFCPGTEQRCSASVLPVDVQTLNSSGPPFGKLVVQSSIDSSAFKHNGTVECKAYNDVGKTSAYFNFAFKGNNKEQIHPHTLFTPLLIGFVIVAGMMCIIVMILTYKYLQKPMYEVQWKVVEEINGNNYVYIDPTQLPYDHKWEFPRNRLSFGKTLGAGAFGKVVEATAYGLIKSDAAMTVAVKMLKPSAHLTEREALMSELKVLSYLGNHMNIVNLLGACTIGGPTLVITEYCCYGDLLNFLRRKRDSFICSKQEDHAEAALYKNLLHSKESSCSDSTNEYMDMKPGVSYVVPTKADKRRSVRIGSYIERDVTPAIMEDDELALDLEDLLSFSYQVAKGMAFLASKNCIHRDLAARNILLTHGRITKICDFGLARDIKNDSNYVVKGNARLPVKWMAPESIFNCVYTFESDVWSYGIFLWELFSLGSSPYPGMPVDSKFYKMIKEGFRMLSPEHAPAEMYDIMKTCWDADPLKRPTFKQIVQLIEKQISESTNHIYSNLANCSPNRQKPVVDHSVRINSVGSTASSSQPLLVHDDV
Chain of UniProt Q13705 (whole entry, looked up): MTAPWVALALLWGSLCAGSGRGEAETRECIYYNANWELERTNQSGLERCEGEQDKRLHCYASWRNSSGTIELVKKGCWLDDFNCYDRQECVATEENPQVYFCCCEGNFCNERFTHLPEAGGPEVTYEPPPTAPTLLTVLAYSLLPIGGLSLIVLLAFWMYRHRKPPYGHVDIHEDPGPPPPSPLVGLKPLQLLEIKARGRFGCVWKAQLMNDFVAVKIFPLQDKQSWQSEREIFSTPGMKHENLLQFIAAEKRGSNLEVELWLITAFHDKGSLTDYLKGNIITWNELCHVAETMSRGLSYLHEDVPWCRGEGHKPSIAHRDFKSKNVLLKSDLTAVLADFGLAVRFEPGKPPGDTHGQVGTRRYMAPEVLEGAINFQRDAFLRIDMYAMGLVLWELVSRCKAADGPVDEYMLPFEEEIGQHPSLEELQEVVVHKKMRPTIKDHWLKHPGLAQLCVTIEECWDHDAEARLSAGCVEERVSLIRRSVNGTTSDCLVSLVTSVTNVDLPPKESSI
Chain of UniProt Q9Y2H1 (whole entry, looked up): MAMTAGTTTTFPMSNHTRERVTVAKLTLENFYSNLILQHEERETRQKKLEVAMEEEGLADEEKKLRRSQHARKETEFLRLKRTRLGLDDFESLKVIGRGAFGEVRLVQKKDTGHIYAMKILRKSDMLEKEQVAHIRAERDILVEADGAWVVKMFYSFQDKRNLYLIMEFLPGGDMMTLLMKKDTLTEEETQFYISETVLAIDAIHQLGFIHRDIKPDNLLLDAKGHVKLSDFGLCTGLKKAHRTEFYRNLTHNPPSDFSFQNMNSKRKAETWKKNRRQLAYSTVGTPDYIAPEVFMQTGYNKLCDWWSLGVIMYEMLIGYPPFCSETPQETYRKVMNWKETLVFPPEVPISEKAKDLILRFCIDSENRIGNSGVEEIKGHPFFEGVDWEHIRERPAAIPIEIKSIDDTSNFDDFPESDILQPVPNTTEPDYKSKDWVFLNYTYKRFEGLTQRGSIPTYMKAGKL
Chain of UniProt Q9BRS2 (whole entry, looked up): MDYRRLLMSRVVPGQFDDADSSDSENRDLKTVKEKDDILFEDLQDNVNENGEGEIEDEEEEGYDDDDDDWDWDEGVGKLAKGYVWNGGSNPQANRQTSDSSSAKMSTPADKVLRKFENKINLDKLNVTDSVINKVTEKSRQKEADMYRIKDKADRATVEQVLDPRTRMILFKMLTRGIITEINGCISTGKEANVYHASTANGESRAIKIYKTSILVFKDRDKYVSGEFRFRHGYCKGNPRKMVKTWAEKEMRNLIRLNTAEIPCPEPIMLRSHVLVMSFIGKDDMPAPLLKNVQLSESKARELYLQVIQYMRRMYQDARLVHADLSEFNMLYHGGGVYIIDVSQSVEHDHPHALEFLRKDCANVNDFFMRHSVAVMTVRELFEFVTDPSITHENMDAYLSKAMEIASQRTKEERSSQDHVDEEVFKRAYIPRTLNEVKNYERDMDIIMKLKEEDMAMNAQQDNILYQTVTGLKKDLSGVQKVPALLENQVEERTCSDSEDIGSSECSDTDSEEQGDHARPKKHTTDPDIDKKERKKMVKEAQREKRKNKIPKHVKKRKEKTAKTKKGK
Chain of UniProt P0C264 (whole entry, looked up): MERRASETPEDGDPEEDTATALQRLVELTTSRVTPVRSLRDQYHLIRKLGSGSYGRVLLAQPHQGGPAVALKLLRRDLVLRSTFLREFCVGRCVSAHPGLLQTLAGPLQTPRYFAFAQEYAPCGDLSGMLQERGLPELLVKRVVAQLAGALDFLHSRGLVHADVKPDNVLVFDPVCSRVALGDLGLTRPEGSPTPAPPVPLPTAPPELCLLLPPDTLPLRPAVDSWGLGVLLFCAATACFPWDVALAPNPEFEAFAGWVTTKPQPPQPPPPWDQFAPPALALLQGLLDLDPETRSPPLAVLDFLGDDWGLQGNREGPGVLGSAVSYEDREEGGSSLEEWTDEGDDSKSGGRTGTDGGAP
Chain of UniProt P0C1S8 (whole entry, looked up): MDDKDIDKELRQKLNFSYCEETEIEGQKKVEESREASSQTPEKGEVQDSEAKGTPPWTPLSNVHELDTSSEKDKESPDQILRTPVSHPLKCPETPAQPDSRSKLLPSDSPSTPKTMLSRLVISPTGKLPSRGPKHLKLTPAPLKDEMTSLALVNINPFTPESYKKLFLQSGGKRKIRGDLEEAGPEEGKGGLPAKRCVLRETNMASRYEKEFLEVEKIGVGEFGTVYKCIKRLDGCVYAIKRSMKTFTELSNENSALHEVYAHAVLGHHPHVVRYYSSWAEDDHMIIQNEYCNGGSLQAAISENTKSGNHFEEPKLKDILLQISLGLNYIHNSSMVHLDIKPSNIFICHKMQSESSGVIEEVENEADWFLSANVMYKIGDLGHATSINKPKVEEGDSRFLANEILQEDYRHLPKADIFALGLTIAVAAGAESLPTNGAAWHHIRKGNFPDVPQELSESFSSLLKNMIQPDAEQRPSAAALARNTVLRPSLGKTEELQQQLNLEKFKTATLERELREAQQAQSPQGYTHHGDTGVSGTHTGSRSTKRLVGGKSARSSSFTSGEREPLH
Chain of UniProt Q00536 (whole entry, looked up): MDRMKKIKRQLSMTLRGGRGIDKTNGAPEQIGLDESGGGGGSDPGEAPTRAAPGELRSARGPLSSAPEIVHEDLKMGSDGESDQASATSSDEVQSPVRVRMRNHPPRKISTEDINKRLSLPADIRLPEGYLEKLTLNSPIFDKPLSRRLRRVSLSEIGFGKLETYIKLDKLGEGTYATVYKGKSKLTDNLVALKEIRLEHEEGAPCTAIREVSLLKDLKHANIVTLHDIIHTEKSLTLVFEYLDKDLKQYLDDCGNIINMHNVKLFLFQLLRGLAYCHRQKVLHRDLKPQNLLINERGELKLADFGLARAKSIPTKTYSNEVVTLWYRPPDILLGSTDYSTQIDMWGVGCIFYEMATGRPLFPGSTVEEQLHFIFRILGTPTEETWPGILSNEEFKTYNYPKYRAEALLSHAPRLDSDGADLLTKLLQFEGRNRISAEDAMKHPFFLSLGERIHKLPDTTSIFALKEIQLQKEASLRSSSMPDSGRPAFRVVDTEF
Chain of UniProt Q15759 (whole entry, looked up): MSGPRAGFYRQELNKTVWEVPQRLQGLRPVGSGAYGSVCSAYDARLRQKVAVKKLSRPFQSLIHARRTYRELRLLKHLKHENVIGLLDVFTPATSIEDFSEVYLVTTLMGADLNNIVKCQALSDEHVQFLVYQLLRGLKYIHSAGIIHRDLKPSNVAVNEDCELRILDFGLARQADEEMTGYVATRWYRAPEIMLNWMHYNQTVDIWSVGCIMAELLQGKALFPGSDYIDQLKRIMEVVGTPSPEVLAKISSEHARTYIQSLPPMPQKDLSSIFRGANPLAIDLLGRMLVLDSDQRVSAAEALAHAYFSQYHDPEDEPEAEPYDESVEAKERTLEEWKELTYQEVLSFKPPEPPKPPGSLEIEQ

Block 1
Target: Diamine acetyltransferase 1 (Homo sapiens, UniProt P21673)
Action: inhibitor
Tested at: 10 µM
Relative to: control
Construct (P21673 1-171): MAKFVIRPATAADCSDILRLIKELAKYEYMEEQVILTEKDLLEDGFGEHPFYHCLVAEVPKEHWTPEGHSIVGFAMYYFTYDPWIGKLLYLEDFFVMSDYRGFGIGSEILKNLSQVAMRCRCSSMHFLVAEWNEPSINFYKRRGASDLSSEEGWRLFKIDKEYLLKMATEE
The remaining activity of `CC(C)=CCC/C(C)=C/CC/C(C)=C/CC[C@]1(C)CCc2cc(O)c(C)c(C)c2O1` is reported as 104%.
With `O=c1ccc2cc(O[C@@H]3O[C@H](CO)[C@@H](O)[C@H](O)[C@H]3O)c(O)cc2o1` the remaining activity was 85.7%.
`COc1cc2c3c(c1OC)-c1ccccc1C[C@H]3N(C)CC2` gave a remaining activity of 110%.

Block 2
Cell line: mouse MPNST tumor cells
Technique: high-content immunofluorescence imaging
Item: nuclear SOX9
Tested at: 10 µM
Time: 12 h
Notes: mean of 2 replicates
Relative to: DMSO control
Direction: higher = more nuclear SOX9
`CC(C)C[C@H](CN)CC(=O)O`: “nuclear SOX9 intensity” 100 % of DMSO.
`CN1CCN(C(=O)OC2c3nccnc3C(=O)N2c2ccc(Cl)cn2)CC1` (stereo not drawn): “nuclear SOX9 intensity” 91.5 % of DMSO.
`COc1ccc(OC)c(C(O)C(C)N)c1` (stereo not drawn) — result for “nuclear SOX9 intensity”: 99.7 % of DMSO.
`CC(NC(C)(C)C)C(=O)c1cccc(Cl)c1` (stereo not drawn): “nuclear SOX9 intensity” 96.9 % of DMSO and 95.4 % of DMSO.
For `CC[C@@H](C(N)=O)N1CCCC1=O`, “nuclear SOX9 intensity” read 106 % of DMSO and 85.1 % of DMSO and 99.1 % of DMSO.

Block 3
Cell line: HaCaT
Tested at: 100 µM
Time: 36 h
`NCC1(CC(=O)O)CCCCC1` gave a viability of 98.8%.
With `CC[C@@H](C(N)=O)N1CCCC1=O` the viability was 92.1%.
`CN(C(=O)/C=C/c1ccoc1)[C@@H]1CC[C@@]2(O)[C@H]3Cc4ccc(O)c5c4[C@@]2(CCN3CC2CC2)[C@H]1O5` gave a viability of 69.4%.
With `Cc1c(N)nc([C@H](CC(N)=O)NC[C@H](N)C(N)=O)nc1C(=O)N[C@H](C(=O)N[C@H](C)[C@@H](O)[C@H](C)C(=O)N[C@H](C(=O)NCCc1nc(-c2nc(C(=O)NCCC[S+](C)C)cs2)cs1)[C@@H](C)O)[C@@H](O[C@@H]1O[C@@H](CO)[C@@H](O)[C@H](O)[C@@H]1O[C@H]1O[C@H](CO)[C@@H](O)[C@H](OC(N)=O)[C@@H]1O)c1c[nH]cn1` the viability was 44.7%.
The viability of `CC[C@]12C=CCN3CC[C@]4(C(=C(C(=O)OC)C1)Nc1ccccc14)[C@@H]32` is reported as 7.58%.

Block 4
Target: Calcium/calmodulin-dependent protein kinase type II subunit alpha (CAMK2A, Homo sapiens, UniProt Q9UQM7)
Chain of UniProt Q9UQM7 (whole entry, looked up): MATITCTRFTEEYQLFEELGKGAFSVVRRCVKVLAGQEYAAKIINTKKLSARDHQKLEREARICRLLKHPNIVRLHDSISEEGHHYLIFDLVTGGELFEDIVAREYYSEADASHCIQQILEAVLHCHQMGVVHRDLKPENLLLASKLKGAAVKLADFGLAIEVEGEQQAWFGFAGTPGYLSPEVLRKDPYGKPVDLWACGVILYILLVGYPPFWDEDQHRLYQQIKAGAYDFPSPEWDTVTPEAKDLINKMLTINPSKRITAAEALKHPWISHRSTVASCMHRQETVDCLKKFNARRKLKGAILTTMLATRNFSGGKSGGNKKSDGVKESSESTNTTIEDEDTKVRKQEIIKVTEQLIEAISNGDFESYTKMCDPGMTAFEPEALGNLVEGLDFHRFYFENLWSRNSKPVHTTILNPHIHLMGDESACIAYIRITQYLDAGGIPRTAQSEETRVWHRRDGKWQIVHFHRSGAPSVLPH
Read-out: enzyme activity
Action: inhibitor
Tested at: 10 µM
`C[C@]12CC[C@H]3[C@@H](CC[C@@H]4C[C@@H](O)CC[C@@]43CO)[C@@]1(O)CC[C@@H]2c1ccc(=O)oc1` has an inhibition of -87%.
With `CCCCC/C=C/C/C=C/CCCCCCCC(=O)O[C@H](COC(=O)CCCCCCCCCCCCCCC)COP(=O)([O-])OCC[N+](C)(C)C` the inhibition was 13%.
`CN(C)C(=O)Oc1cc(OC(=O)N(C)C)cc(C(O)CNC(C)(C)C)c1` (stereo not drawn) has an inhibition of -5%.
The inhibition of `COc1ccc(C=O)cc1` is reported as 50%.
`C[C@@H]1CC[C@@]2(OC1)O[C@H]1[C@@H](O)[C@H]3[C@@H]4CC[C@H]5C[C@@H](O[C@@H]6O[C@H](CO)[C@H](O[C@@H]7O[C@H](CO)[C@@H](O)[C@H](O[C@@H]8OC[C@@H](O)[C@H](O)[C@H]8O)[C@H]7O[C@@H]7O[C@H](CO)[C@H](O)[C@H](O[C@@H]8O[C@H](CO)[C@@H](O)[C@H](O)[C@H]8O)[C@H]7O)[C@H](O)[C@H]6O)[C@H](O)C[C@]5(C)[C@H]4CC[C@]3(C)[C@H]1[C@@H]2C` gave an inhibition of -25%.

Block 5
SMILES: Cc1ncsc1-c1ccc([C@H](C)NC(=O)[C@@H]2C[C@@H](O)CN2C(=O)[C@@H](NC(=O)CNC(=O)c2ccc(F)c(-c3ccc(N4C[C@@H](C)N(C)[C@@H](C)C4)c(NC(=O)c4c[nH]c(=O)cc4C(F)(F)F)c3)c2)C(C)(C)C)cc1
Cell line: MV4-11
Technique: ATPlite
Time: 5 days
Relative to: DMSO
It gave 36.1% and 24.7% and 21% and 36.7% for viability (0.0341 µM).
For 0.0147 µM: viability read 41.5% and 31.1% and 47.1% and 37%.
For 0.0063 µM: viability read 51.6% and 57.6% and 55.5% and 81%.
For 0.185 µM: viability read 13.9% and 14.3% and 10.8%.
0.0005 µM — viability: 84.6% and 80.1% and 96% and 107%.

Block 6
Structure (SMILES): N#CC1(c2ccccn2)CCN(Cc2cc(C(=O)O)c(=O)n3ccccc23)CC1
Read-out: cell-free assay
Technique: competition with immobilised ligand
Tested at: 1 µM
The remaining binding was 72% (SBK3 (Homo sapiens, UniProt P0C264)).
It gave 100% for remaining binding (FGFR3 (Homo sapiens, UniProt P22607)).
The remaining binding was 100% (WEE2 (Homo sapiens, UniProt P0C1S8)).
For Mast/stem cell growth factor receptor Kit, autoinhibited (KIT, Homo sapiens, UniProt P10721): remaining binding read 87%.
The remaining binding was 100% (Tyrosine-protein kinase JAK1, JH1 (JAK1, Homo sapiens, UniProt P23458)).
It gave 94% for remaining binding (FLT3 (Homo sapiens, UniProt P36888, D835V/ITD)).
It gave 100% for remaining binding (MAPK11 (Homo sapiens, UniProt Q15759)).
For CDK16 (Homo sapiens, UniProt Q00536): remaining binding read 67%.
Cyclin-dependent kinase 4, with cyclin D1 (CDK4, Homo sapiens, UniProt P11802) — remaining binding: 100%.
It gave 96% for remaining binding (EGFR (Homo sapiens, UniProt P00533, del752-759)).
KIT (Homo sapiens, UniProt P10721, D816V) — remaining binding: 100%.
PHKG2 (Homo sapiens, UniProt P15735) — remaining binding: 100%.
The remaining binding was 72% (Tyrosine-protein kinase ABL1, phosphorylated (ABL1, Homo sapiens, UniProt P00519, Y253F)).
It gave 100% for remaining binding (Ribosomal protein S6 kinase alpha-5, N-terminal kinase domain (RPS6KA5, Homo sapiens, UniProt O75582)).
For FLT3 (Homo sapiens, UniProt P36888): remaining binding read 85%.
It gave 89% for remaining binding (Tyrosine-protein kinase ABL1, non-phosphorylated (ABL1, Homo sapiens, UniProt P00519, Q252H)).
For Tyrosine-protein kinase ABL1, non-phosphorylated (ABL1, Homo sapiens, UniProt P00519, F317L): remaining binding read 57%.
For FLT3 (Homo sapiens, UniProt P36888, N841I): remaining binding read 97%.
RIOK1 (Homo sapiens, UniProt Q9BRS2) — remaining binding: 88%.
The remaining binding was 97% (ACVR2B (Homo sapiens, UniProt Q13705)).
The remaining binding was 86% (SGK2 (Homo sapiens, UniProt Q9HBY8)).
STK38L (Homo sapiens, UniProt Q9Y2H1) — remaining binding: 80%.

Some of these lines once more (block 6):
It gave 94% for remaining binding (FLT3 (Homo sapiens, UniProt P36888, D835V/ITD)).
It gave 100% for remaining binding (MAPK11 (Homo sapiens, UniProt Q15759)).
For CDK16 (Homo sapiens, UniProt Q00536): remaining binding read 67%.
